Results pooled from the literature.
Every numbered part comes from another study and shows a few of its results, in no order. Changes are numbered by the printed parent chain.

Study 1
Target: Interferon regulatory factor 5, full length, phosphomimetic (IRF5, Homo sapiens, UniProt Q13568-2, residues 1-514, S451D/S453D/S456D/S462D)
Method: protein-binding microarray
Form: double-stranded DNA, one strand shown
Sample: in vitro
Tested at: 940 nM top
Setting: 60-bp whole probe
Added: salmon DNA 0.4 mg/ml
Relative to: random background probes
Reading: higher = stronger binding
Constant ends, left off below: GCCTAGCAC … GTCTTGATTCGCTTGACGCTGCTG
Under “fitted relative affinity”, `GACGATATCGGTTTCGGGACGTGCTAG` is recorded as 4.28 z-score.
For `GACGGACAGGACTATCGGGACGTGCTA`, “fitted relative affinity” read -0.713 z-score.
`TCACCTCTTTTTTTGGTACTGTGCTAG` — result for “fitted relative affinity”: 1.43 z-score.
`TCACCTCTAGGTTTTCTACTGTGCTAG` — result for “fitted relative affinity”: 0.154 z-score.
`TCAGTTTTCTCATTCGTACTGTGCTAG`: “fitted relative affinity” 2.15 z-score.
`GACGGGTTCCTTTTCCTGACGTGCTAG`: “fitted relative affinity” 0.245 z-score.
Under “fitted relative affinity”, `GACGAACTGAGTTTCGGGACGTGCTAG` is recorded as 4.11 z-score.
`CTCTGGGGCTCCAGGGAGAAGTGCTAG` — result for “fitted relative affinity”: -0.837 z-score.
For `TTCGGTCTCCTTTTCCTTTAGTGCTAG`, “fitted relative affinity” read 0.906 z-score.
`TCACTTATAAATAGCACACTGTGCTAG`: “fitted relative affinity” 0.471 z-score.
`TTATGTTTCGGTCTCGGTTAGTGCTAG` — result for “fitted relative affinity”: 9.54 z-score.
For `TTAGGACTGCTTCTCCTTTAGTGCTAG`, “fitted relative affinity” read 0.15 z-score.
`GACGTTATCAGTTTCGAGACGTGCTAG` — result for “fitted relative affinity”: 4.18 z-score.
For `TTAGGAATGGGGACTGGGTTAGTGCTA`, “fitted relative affinity” read 0.0655 z-score.
`AAAATGATTTTTTTCATATAGTGCTAG`: “fitted relative affinity” 0.403 z-score.
`GACGATATCAGAATGGAGACGTGCTAG` — result for “fitted relative affinity”: -0.523 z-score.
`GACGATCTCCGTCTCGAGACGTGCTAG` — result for “fitted relative affinity”: -0.00742 z-score.
For `GACGGTATCGACATTGGGGACGTGCTA`, “fitted relative affinity” read 3.74 z-score.
For `CTAGGACTGCTTCTCCTTTAGTGCTAG`, “fitted relative affinity” read -0.238 z-score.
`CCAGGGCTGCCAGCCTCCTCGTGCTAG`: “fitted relative affinity” -0.683 z-score.
Under “fitted relative affinity”, `CTCTGCTTCTGTATGGGCATGTGCTAG` is recorded as -0.0231 z-score.

Study 2
Target: Transcription factor Sp1 (SP1, Homo sapiens, UniProt P08047, residues 1-785, full length assumed)
UniProt P08047, sequence (whole entry, looked up): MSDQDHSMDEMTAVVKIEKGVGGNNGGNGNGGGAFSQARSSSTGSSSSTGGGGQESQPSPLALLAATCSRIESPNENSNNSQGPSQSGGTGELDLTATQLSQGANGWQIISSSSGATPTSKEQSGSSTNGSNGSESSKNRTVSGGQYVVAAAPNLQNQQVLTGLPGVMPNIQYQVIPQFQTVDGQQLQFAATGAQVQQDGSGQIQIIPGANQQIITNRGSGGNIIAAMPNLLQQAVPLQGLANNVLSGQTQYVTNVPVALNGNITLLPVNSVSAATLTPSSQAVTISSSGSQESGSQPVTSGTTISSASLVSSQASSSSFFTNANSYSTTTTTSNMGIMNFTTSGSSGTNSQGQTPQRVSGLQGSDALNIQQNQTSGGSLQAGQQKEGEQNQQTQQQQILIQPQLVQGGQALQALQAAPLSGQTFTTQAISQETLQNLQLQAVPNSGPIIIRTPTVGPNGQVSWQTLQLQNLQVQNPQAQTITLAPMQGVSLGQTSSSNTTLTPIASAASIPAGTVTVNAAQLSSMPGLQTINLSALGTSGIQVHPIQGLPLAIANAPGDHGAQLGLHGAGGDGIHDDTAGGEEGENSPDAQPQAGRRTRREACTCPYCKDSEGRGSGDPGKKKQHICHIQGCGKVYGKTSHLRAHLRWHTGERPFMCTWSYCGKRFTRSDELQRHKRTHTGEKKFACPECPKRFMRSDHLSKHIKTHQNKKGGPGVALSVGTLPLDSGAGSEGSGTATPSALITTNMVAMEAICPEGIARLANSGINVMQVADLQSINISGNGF
Method: protein-binding microarray
Form: double-stranded DNA, one strand shown
Sample: in vitro
Tested at: not given
Setting: k-mer, scored over probes, only values ≥0.25
Reading: higher = stronger binding
With `GTCGGGGA` the E-score was 0.299.
`AACACCCC` gave an E-score of 0.355.
With `GTGGGCGA` the E-score was 0.313.
`CCCATATA` gave an E-score of 0.311.
The E-score of `ACATAGAC` is reported as 0.254.
For `GACGCCCA`, the E-score was 0.333.
`CGCCTCCC` gave an E-score of 0.364.
With `ATCCCCGC` the E-score was 0.346.
`AACTCCCC` has an E-score of 0.288.
The E-score of `ACCCCTAC` is reported as 0.294.
The E-score of `GGGCGTTA` is reported as 0.262.
`CCTTCCCC` has an E-score of 0.363.
`ACGCATAT` has an E-score of 0.262.
With `ATGGAGGG` the E-score was 0.312.
The E-score of `AACCCACC` is reported as 0.284.

Study 3
Target: CCNA2, cyclin fold, Cln2 fusion (human)
Method: yeast growth competition, sequencing
Sample: yeast
Setting: strong parent motif
Relative to: not given
Reading: higher = stronger binding
Starting sequence: E2F1 docking peptide (human); PPVKRRLDFETDH; partner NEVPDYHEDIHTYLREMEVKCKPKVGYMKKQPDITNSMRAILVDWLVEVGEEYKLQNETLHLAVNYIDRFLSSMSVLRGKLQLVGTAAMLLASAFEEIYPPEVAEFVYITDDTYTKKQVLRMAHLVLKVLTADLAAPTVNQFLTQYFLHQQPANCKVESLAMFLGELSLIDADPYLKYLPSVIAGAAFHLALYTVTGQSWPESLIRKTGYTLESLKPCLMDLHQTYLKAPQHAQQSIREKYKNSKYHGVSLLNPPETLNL
`PPVKRRLRFETDH [D8R]`: “normalised enrichment score” 5.87.
Under “normalised enrichment score”, `PPVKRRLAFETDH [D8A]` is recorded as 6.18.
`PPVERRLDFETDH [K4E]`: “normalised enrichment score” 3.71.
`PPAKRRLDFETDH [V3A]` — result for “normalised enrichment score”: 6.01.
For `PIVKRRLDFETDH [P2I]`, “normalised enrichment score” read 6.2.
`PPVKRHLDFETDH [R6H]`: “normalised enrichment score” 5.21.
`PPVSRRLDFETDH [K4S]` — result for “normalised enrichment score”: 5.74.
Under “normalised enrichment score”, `PPVKRRLDTETDH [F9T]` is recorded as 0.413.
For `PWVKRRLDFETDH [P2W]`, “normalised enrichment score” read 5.83.
Under “normalised enrichment score”, `PPVVRRLDFETDH [K4V]` is recorded as 5.31.
`PPVKRRLDFETWH [D12W]`: “normalised enrichment score” 6.15.
`PPVKRRGDFETDH [L7G]`: “normalised enrichment score” -0.0505.
Under “normalised enrichment score”, `PPVKRRLLFETDH [D8L]` is recorded as 5.75.
For `PPVKRRLDFETPH [D12P]`, “normalised enrichment score” read 6.54.
`PPVKRRLDFEYDH [T11Y]` — result for “normalised enrichment score”: 5.8.
`PPVKKRLDFETDH [R5K]`: “normalised enrichment score” 5.93.
`PPVKRRLDFEDDH [T11D]`: “normalised enrichment score” 6.06.
`PPVGRRLDFETDH [K4G]`: “normalised enrichment score” 5.
For `PPVKRRLDFEKDH [T11K]`, “normalised enrichment score” read 5.96.
`PPVQRRLDFETDH [K4Q]` — result for “normalised enrichment score”: 5.58.
Under “normalised enrichment score”, `PPVKNRLDFETDH [R5N]` is recorded as 0.962.
`PYVKRRLDFETDH [P2Y]` — result for “normalised enrichment score”: 6.25.
For `PPVKRRLDFETSH [D12S]`, “normalised enrichment score” read 6.4.
Under “normalised enrichment score”, `PPVKRRLYFETDH [D8Y]` is recorded as 6.23.
`PPVKRRLDYETDH [F9Y]`: “normalised enrichment score” 5.72.

Study 4
Target: RNA binding protein fox-1 homolog 2, RRM domain, GST-SBP tag (RBFOX2, Homo sapiens, UniProt O43251-10, residues 100-194)
Method: RNA Bind-n-Seq
Form: RNA
Sample: in vitro
Tested at: 365 nM
Setting: natural RNA segment, single round, ends assumed
Relative to: no-protein control
Reading: higher = stronger binding
Residues (chain): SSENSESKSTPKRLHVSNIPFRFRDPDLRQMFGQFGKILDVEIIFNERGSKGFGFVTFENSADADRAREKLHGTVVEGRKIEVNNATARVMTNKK
`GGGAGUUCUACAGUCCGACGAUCUUUAGCACCUACCUCCUAGAGCUGUUUUGGGAGUCAAAUGCGCUGACGUAUAUAAAGUGCUUUGCAAGAUCCCUUUGUGUUUGCGGCUGUCAUUGUGGAAGAGUUGCAACUGGAAUUCUCGGGUGCCAA` — result for “RBNS enrichment (R)”: 1.2.
`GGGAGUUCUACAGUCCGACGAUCCAGCAUCUCUACUUUUAAAGAGGAGUUGAGGAUCGAGAAGAUGACAGUGCAGCAGUGGGUGUGGCCUGACUACAUGUGCUGUUCCAGCCCUGGGUGCCCACUGACACCGAUGGAAUUCUCGGGUGCCAA`: “RBNS enrichment (R)” 0.241.
Under “RBNS enrichment (R)”, `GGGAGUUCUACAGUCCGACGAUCUCCUACUCCCCUUUCCCUCCAAAUGUUAAGGGUUUUCUCCCAGAACAGUAAUGGGGCUAAAGGGGCAGUGAGCUCCAAACAGUCACAGAGUGAGGAGUCUUCUGAGCUCCUGGAAUUCUCGGGUGCCAA` is recorded as 0.177.
`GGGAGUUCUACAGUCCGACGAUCUGUUUCAUUGUCCAGAAAGCAGCAGGAAACUAUUCAGUUGUGAUCAAGCAGGAAAAAAGAAACACCAACAGUUGCCAGUGUUUUUGCUUUUUAGCUUAAAAGCAUAGUGAUGGAAUUCUCGGGUGCCAA` — result for “RBNS enrichment (R)”: 0.352.
For `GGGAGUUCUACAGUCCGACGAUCCUCAACAGUCUGUGUGAUCCCAAAGCCAUUCCACUGUAAAUGCCUGGCAGUAAAGAUGGCCCCAGACUGGGUUCCUGCCUGCAGUGUGUGUGGCGGUAGCCCAUGUGCCUUGGAAUUCUCGGGUGCCAA`, “RBNS enrichment (R)” read 0.564.
Under “RBNS enrichment (R)”, `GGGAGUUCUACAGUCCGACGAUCUUCUUGGUGAAACAAAAGUUUUAAAAGUAGUUUUAACAACUUUACACUGGAAUGAUUUAGCUUUGUUAUUGCAUGUCUUGUGUUAAGUGUUUUGUAUAUGAUAUUGCAGUUGGAAUUCUCGGGUGCCAA` is recorded as 1.15.
`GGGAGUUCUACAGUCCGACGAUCUUUUGAUAAUGUAAGGAAACACAGGGACCACAAAACCUUUUUUUUUUUUUUAAGUGUGAAAGAUUAGUGCCUUUUGGCAUACUUUUGAUUUUAGAGGAUAUAGUAUCGGCUGGAAUUCUCGGGUGCCAA` — result for “RBNS enrichment (R)”: 0.442.
`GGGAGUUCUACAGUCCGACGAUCAGGCAGAGACAGGAAGACCGCCGAAAGGUCAAGGAUAGCAUGGUCUACGUAUCGAGACUCCAGCCAGGGCUACGGUCCCAAGAUCCUAGGUUUUGGAUUUUGGGCUUUGGUGGAAUUCUCGGGUGCCAA`: “RBNS enrichment (R)” 1.34.
`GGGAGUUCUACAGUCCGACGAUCUUGUUCUUAUUUUAAAAUUAACACUAUGUGUUCAGUUUUCUUGUGGGCUUCUGAAAGUUGCCAUCUUCCCUCCGUGGAGCUCCAUUUGCUAUUUUCAUUAUACACUAUGAUGGAAUUCUCGGGUGCCAA` — result for “RBNS enrichment (R)”: 6.3.
For `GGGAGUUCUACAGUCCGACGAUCCCAGUGCCCUCGGCAGAUGGGUGGCAGAAAGCAGGAGGAGGAAGAGGGAGCUGACCGAUGCCGGGUGUCUUACUCCGCUGAGAUCAGAACCUCCAACAUGCCGAGCAGACUGGAAUUCUCGGGUGCCAA`, “RBNS enrichment (R)” read 0.508.
`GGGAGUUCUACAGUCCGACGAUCACAGGUUAAAAUGGAAUUUAAUCUCAGAGAUCCUUUGUUCAAGAAUAUUUGAUUGCAUAUUUAGUUGUAGUAAGAUUUUAUAAAAUACAUAAUCCUUUGUAUGUGCAGUUUGGAAUUCUCGGGUGCCAA`: “RBNS enrichment (R)” 0.85.
Under “RBNS enrichment (R)”, `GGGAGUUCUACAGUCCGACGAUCAGCUGUCCCAGCCCCUCCCAUUUCUUGGGCAGGGCUCUUUUCCUGUUGUGUCUUCCCCCAGGGCCUGUCCUGUACCGAGCUCUGUCUGUUCCAGCCUUCAUCCUUCCUGGUGGAAUUCUCGGGUGCCAA` is recorded as 0.457.

For quick reference, copied from above (study 1):
`GACGTTATCAGTTTCGAGACGTGCTAG` — result for “fitted relative affinity”: 4.18 z-score.
`TCACTTATAAATAGCACACTGTGCTAG`: “fitted relative affinity” 0.471 z-score.
For `TTCGGTCTCCTTTTCCTTTAGTGCTAG`, “fitted relative affinity” read 0.906 z-score.
Under “fitted relative affinity”, `GACGATATCGGTTTCGGGACGTGCTAG` is recorded as 4.28 z-score.
`GACGGGTTCCTTTTCCTGACGTGCTAG`: “fitted relative affinity” 0.245 z-score.
`CTCTGGGGCTCCAGGGAGAAGTGCTAG` — result for “fitted relative affinity”: -0.837 z-score.
`TCAGTTTTCTCATTCGTACTGTGCTAG`: “fitted relative affinity” 2.15 z-score.
`CCAGGGCTGCCAGCCTCCTCGTGCTAG`: “fitted relative affinity” -0.683 z-score.
Under “fitted relative affinity”, `CTCTGCTTCTGTATGGGCATGTGCTAG` is recorded as -0.0231 z-score.
`TTATGTTTCGGTCTCGGTTAGTGCTAG` — result for “fitted relative affinity”: 9.54 z-score.
`TCACCTCTTTTTTTGGTACTGTGCTAG` — result for “fitted relative affinity”: 1.43 z-score.
